Results collected from several papers.
Each numbered part is a random draw from the data of one study; scales do not carry over between parts.

Sample 1
Target: Interferon regulatory factor 5, full length, phosphomimetic (IRF5, Homo sapiens, UniProt Q13568-2, residues 1-514, K96S/S451D/S453D/S456D/S462D)
Method: protein-binding microarray
Molecule type: double-stranded DNA, one strand shown
Medium: in vitro
Concentration: 250 nM
Setting: 60-bp whole probe
Added: salmon DNA 0.4 mg/ml
Relative to: random background probes
Direction: higher = stronger binding
Constant ends, left off below: GCCTAGCAC … GTCTTGATTCGCTTGACGCTGCTG
| Strand | log fluorescence [z-score] |
| --- | --- |
| GACGACCTGAGACTGGAGACGTGCTAG | -0.396 |
| AAAGTTTTTCATTTTTTTTCGTGCTAG | 2.18 |
| GACGGTCTCGGTATCGGGATGTGCTAG | 1.24 |
| TTAGATTTTGGGTTTCGATTAGTGCTA | 7.04 |
| TCAGGCTTCTATGTAGTACTGTGCTAG | -0.0483 |
| TCACCAATCATTTTTGCACTGTGCTAG | 0.718 |
| TTAAGTATCCTACTGCTTTAGTGCTAG | 0.237 |
| ATAGGTTTCCTTCTCCTTTAGTGCTAG | 0.864 |
| GACGATTTCAGTTTCGAGCCGTGCTAG | 5.92 |
| TTATAACTGGGGTATCGATTAGTGCTA | 2.76 |
| TCATATTTTTTTCCAGAACTGTGCTAG | 0.884 |
| GACGTTTTCAGACTGGAGACGTGCTAG | 0.412 |
| GACGGACTGCTACTGCCGACGTGCTAG | -0.455 |
| GTAGATTTCAGTATCGATTAGTGCTAG | 8.04 |
| GACGGAATGGACACTGGGGACGTGCTA | -0.347 |
| TCAGTTTTTACTTTCTGACTGTGCTAG | 2.57 |
| TTAGATTTTAGTTCCGATTAGTGCTAG | 1.97 |
| TTAGGACTGCTTCTCCCTTAGTGCTAG | -0.13 |
| GACGAAGTGGGGTATCGAGACGTGCTA | 0.175 |
| TTAGGAATCCTACTGCTTTAGTGCTAG | -0.0218 |
| TCATTTTACTTTCTATCACTGTGCTAG | 6.16 |
| TTAGGTATCGGGACTAGGTTAGTGCTA | 1.77 |
| GACGGTTTCGGTTTCTGGACGTGCTAG | 9.81 |
| CCCACCTCTCACGGGCTTGTGTGCTAG | -0.457 |
| TCACTGCTACCCTCTGAAACTGTGCTA | 0.127 |

Sample 2
Target: Centromere-binding protein 1, full length, N-terminal tag (CBF1, Saccharomyces cerevisiae, UniProt P17106, residues 1-351)
Sequence of UniProt P17106 (whole entry, looked up): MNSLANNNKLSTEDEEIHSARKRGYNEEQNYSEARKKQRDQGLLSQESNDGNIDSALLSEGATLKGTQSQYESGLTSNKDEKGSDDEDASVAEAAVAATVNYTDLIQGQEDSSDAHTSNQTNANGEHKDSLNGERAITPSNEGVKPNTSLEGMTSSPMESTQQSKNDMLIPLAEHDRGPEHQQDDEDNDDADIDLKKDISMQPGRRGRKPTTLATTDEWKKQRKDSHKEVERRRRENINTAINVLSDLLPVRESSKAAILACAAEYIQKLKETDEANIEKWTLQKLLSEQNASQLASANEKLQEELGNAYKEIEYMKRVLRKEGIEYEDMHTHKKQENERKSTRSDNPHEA
Method: protein-binding microarray
Molecule type: double-stranded DNA, one strand shown
Medium: in vitro
Concentration: 0.8 µM
Setting: whole 60-bp probe, no competitor
Direction: higher = stronger binding
| Strand | fluorescence intensity |
| --- | --- |
| GAATTTTTACTAGGCATCAGAACTGTCTCCGAATAGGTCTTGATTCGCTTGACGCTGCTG | 522 a.u. |
| GAACTGAGGAGGGACCTCCACGTGCCAAACGACTAGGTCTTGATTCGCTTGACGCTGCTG | 3050 a.u. |
| GAAACAGGTAATCATCATGAGCTCCCCATTCATTAGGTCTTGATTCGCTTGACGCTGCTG | 497 a.u. |
| CTATGATTTCCCAGTCACGGATTCCTTTTGAGATTCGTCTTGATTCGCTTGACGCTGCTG | 800 a.u. |
| CTAATTCTTACGAAACACGTCACAGGGTCAAAATTCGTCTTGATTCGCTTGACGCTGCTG | 2560 a.u. |
| GAAGGTTCACTCCTACAGGTGATTCCTTCGAGATAGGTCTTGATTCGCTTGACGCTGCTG | 554 a.u. |
| CTAGTGGCTTAGCATCTCGTGAGGATATGGAAGTTCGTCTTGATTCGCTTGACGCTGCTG | 615 a.u. |
| GAAGAAAAAACACCACACGCAATGGCCGCATATTAGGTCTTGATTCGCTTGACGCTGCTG | 490 a.u. |
| CTATTATTACTACGTGGTCAATTTTCTCTTTCCTTCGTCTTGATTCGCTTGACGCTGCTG | 521 a.u. |
| GAATTACCAAATAACCACCTGAACCACCCCACATAGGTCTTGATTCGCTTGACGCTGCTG | 543 a.u. |
| CTACGCTATCACTTACATGTGATATCATTTCTGTTCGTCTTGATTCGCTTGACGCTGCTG | 2160 a.u. |
| GAACTATTAAATAAACATCAGAACACATTGAGGTAGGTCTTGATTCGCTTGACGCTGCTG | 579 a.u. |
| CCTAACTACTATATTCACGAGTTATAGCTTCGTACAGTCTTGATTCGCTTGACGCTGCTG | 534 a.u. |
| GAATTAGGCTTTGAACGCGTGCTATGGAAAAAATAGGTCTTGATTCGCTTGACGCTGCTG | 708 a.u. |
| GAAACAATATACACGCGCGTGCGTAGATATATATAGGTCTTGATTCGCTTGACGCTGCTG | 968 a.u. |
| GAAATCTGTATGAACCACGTGACTTAACATGAATAGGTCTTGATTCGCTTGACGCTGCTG | 17800 a.u. |
| CTAAAAATAAATGAACACATGGAAATAAGTCAATTCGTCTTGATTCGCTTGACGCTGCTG | 634 a.u. |
| CTATTTCCTTTTTGCCTCGTGATGTTCAAGAAGTTCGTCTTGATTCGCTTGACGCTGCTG | 1750 a.u. |
| CTATACTGCACCAACAGGTGAACTCAAAACTACTTCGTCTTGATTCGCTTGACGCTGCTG | 522 a.u. |
| GAATATGAGTACCGTCACGTTTCTTGTTGAAGATAGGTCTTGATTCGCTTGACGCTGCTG | 1480 a.u. |
| GAAAAAGCTCTCCCCCTCGTGTAATTATGCACGTAGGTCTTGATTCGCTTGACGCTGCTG | 557 a.u. |
| GAATTCCTTTTTGGCAGCATGATGCAACCACATTAGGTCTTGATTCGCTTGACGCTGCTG | 522 a.u. |
| CTAAGTACCAAGAATCATATGAGCCTTTTCAGTTTCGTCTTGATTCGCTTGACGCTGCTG | 510 a.u. |
| GAAAATCATTAGCAGCACATGTCGAGCAACAGATAGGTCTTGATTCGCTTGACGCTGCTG | 854 a.u. |
| CTAGCCGGTTTCTTCCACGCGTCAATCCGTTTGTTCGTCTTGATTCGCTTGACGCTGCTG | 534 a.u. |

Sample 3
Target: Ras GTPase-activating protein-binding protein 1, full length (G3BP1, Homo sapiens, UniProt Q13283)
Sequence of UniProt Q13283 (whole entry, looked up): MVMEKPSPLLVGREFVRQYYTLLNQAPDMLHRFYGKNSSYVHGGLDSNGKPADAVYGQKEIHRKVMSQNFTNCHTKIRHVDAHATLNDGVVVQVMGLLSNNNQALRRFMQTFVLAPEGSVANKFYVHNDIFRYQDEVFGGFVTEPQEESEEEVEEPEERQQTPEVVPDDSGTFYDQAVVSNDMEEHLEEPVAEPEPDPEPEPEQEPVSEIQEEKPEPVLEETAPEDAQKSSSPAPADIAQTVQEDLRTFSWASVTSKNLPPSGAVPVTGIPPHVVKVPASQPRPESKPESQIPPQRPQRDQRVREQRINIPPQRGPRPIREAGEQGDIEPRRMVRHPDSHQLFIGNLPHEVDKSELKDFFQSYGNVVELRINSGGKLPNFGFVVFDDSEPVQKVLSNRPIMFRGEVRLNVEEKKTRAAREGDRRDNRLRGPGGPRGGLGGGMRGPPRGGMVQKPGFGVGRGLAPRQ
Method: RNA Bind-n-Seq
Molecule type: RNA
Medium: in vitro
Concentration: 200 nM
Setting: whole 134-nt RNA, ends assumed
Added: 150 mM LiCl
Relative to: input library
Direction: higher = stronger binding
All molecules: 7-deaza-guanosine replaces G
| Strand | log2 enrichment |
| --- | --- |
| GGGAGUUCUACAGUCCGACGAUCUCAAGUCCUGUGCUACACAUCGUAUGUACCGAAUCGGGCCCGGCCCGGCCCGGGAAAGUAUUAUGUUACGCCGUUCGGAUCUGCACUUCCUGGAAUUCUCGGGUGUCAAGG | -0.693 |
| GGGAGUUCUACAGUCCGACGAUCACCAUGCAGGUGGGCAUCUUUGGGAAGUGGGGCAAGGGGGGGAUAGGGAGGGGGGUAACACUUUGGGAACAGGUGGUCCCGGGUCGUUUCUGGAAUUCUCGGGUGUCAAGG | 0.12 |
| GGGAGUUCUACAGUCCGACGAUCAAGUCCUGUGCUACACAUCGUAUGUACCGAAUCGGGAGGGUUUGGGAAAAAAAGGGAAAGUAUUAUGUUACGCCGUUCGGAUCUGCACUUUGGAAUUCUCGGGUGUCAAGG | -0.584 |
| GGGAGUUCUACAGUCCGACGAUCUUUCAGGGGAGCUCUUUGCUCAGGCCCCGGUGGAUCAGUUUCCUGGCACAGCUGUGGAGAGUGUGACGGAUUCCAGCAGGUACUUCGUGAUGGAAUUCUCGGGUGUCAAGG | -0.346 |
| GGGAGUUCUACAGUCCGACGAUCCACAGACAACACGCACCCACACAGACACAGAGGGAAGGGGUUGGGAUGGGGACAGGGUGCACAGCAUGGCGGGGUAGGACCCCAGCCCCUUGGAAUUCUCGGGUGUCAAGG | 0.154 |
| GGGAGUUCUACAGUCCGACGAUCCAAGUCCUGUGCUACACAUCGUAUGUACCGAAUCGGGCCCCGGCCCCGGCCCCGGGAAAGUAUUAUGUUACGCCGUUCGGAUCUGCACUUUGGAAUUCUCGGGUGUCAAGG | -0.967 |
| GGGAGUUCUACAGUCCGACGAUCGCAGGAAGUAAAAACAAAUGGAAAUGCUUCGAAUAGUGGCAGGGGUGGGGGUUGCUAAGGAAAGGGUGGGAUGGGAGUGGGUAAAGAGUUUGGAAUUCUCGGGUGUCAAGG | 0.0969 |
| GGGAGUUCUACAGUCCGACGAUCCCUCAAGUCCUGUGCUACACAUCGUAUGUACCGAAUCGGUUGGUUGGGGUUGGAAAGUAUUAUGUUACGCCGUUCGGAUCUGCACUUCCAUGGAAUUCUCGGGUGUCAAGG | 0.121 |

Sample 4
Target: Histone acetyltransferase KAT6A, both winged helices, GST fusion (KAT6A, Homo sapiens, UniProt Q92794, residues 1-181)
Method: protein binding microarray
Molecule type: double-stranded DNA, one strand shown
Medium: in vitro
Concentration: not given
Setting: 8-mer, flanks averaged, mean of 2 arrays, mostly near background
Relative to: not given
Direction: higher = stronger binding
Construct (chain): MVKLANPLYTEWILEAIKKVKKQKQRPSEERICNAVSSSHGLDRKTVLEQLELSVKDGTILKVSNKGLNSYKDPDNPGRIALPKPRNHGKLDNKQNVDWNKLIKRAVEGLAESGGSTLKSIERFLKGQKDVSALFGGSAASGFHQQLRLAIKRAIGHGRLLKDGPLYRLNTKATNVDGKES
| Strand | E-score |
| --- | --- |
| GTCCGATA | 0.0751 |
| CTCATTAA | -0.073 |
| TAAGTGGA | -0.142 |
| CACTGATG | -0.215 |
| ATGAGTAG | -0.0668 |
| ACTAAGGA | -0.0449 |
| CCCTAAAC | -0.0607 |
| ACTATGCA | -0.169 |
| CACACAAC | 0.0554 |
| CTGTGGCC | -0.00975 |
| AAAGATAC | -0.13 |
| AAGTCACC | -0.0314 |
| CGGACTGC | 0.14 |
| AAACTTCC | -0.0634 |
| AGGCTCAC | -0.0191 |
| AAGTAACC | -0.129 |
| ACGAAAAA | -0.0953 |
| AACGCACC | 0.137 |
| TCGCCGAA | 0.196 |
